Values quoted from earlier work as cited in several papers.
Protocols differ between the studies behind these lines.
Sequence of UniProt Q01959 (whole entry, looked up): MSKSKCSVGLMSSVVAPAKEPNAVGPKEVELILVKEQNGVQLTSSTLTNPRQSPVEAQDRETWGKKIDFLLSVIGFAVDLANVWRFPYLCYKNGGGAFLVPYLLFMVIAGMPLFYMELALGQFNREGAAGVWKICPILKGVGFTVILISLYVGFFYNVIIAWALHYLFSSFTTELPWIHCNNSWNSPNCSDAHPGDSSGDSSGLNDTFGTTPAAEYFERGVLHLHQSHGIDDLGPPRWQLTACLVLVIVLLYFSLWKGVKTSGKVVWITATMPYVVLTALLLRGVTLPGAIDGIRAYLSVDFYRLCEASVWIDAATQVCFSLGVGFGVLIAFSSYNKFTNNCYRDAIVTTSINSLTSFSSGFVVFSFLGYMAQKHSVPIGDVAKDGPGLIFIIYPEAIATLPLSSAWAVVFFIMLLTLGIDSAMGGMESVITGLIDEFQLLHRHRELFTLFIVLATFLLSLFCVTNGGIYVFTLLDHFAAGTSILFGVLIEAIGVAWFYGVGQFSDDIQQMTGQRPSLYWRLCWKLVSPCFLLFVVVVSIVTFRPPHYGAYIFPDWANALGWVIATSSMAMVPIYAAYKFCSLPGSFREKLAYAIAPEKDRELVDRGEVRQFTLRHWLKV
Sequence of UniProt P23975 (whole entry, looked up): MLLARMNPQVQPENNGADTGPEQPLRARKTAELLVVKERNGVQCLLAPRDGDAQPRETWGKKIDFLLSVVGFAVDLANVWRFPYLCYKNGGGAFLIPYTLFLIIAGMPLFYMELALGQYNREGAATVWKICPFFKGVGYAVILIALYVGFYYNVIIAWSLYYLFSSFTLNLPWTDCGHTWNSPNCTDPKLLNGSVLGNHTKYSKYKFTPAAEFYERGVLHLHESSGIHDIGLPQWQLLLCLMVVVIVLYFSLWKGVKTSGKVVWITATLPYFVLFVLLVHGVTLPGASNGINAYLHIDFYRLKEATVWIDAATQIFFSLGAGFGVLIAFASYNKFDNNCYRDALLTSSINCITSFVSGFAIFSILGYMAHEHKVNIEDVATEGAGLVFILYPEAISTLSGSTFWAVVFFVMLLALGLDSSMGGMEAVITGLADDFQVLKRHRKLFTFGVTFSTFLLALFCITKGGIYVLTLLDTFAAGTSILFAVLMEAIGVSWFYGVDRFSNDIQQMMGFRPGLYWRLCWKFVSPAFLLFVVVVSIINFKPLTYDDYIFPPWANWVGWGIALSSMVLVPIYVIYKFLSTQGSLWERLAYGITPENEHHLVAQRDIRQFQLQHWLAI

The IC50 of `Cc1ccccc1Oc1cc(-n2c(=O)cc(C(F)(F)F)[nH]c2=O)c2ccccc2c1Cl` is reported as 27 nM (BCAT1; biochemical activity).
`CCCNc1nc(C#Cc2ccc(Cl)s2)nc2c1ncn2[C@H]1[C@H](O)[C@H](O)[C@]2(C(=O)NC)C[C@H]12` gave an IC50 of > 8700 nM (SLC6A3 (Homo sapiens, UniProt Q01959); [3H]dopamine uptake, inhibitor).
With `CC(=O)N1CCC(c2ccc(C(=O)NC(=N)N)cc2C(F)(F)F)CC1` the IC50 was 6 nM (SLC9A1; biochemical activity).
`CC12CC3CC(C)(C1)CC(N)(C3)C2` — result for activity class: “inactive” (Toxoplasma gondii; parasite growth; concentration not given, drug repurposing screen).
The IC50 of `C[C@H](c1ccnc(Nc2nc3ccc(-c4cc(N(C)C)ncn4)cc3[nH]2)c1)N1CCN(C(=O)CC(F)(F)F)CC1` is reported as 2 nM (IKBKE; low ATP).
`Cc1cc(Nc2ncc(Cl)c(Nc3ccccc3S(=O)(=O)C(C)C)n2)c(OC(C)C)cc1C1CCNCC1` — result for “absorption rate constant ka”: 0.4 h⁻¹.
`CNC(=O)[C@@]12C[C@@H]1[C@@H](n1cnc3c(NC)nc(C#Cc4ccc(Cl)s4)nc31)[C@H](O)[C@@H]2O` has an IC50 of > 10000 nM (SLC6A2 (Homo sapiens, UniProt P23975); [3H]noradrenaline uptake, inhibitor).
With `CO[C@@H](C)c1c(Nc2ccc([C@H](N(C)C(=O)C3CCS(=O)(=O)CC3)C(F)(F)F)cc2)cnc2cc(Cl)nn12` the IC50 was 3.4 nM (MALT1 (human); cellular activity).
